Measurements from different studies.
Every numbered part comes from another study and shows a few of its results, in no order.

Block 1
Target: Histone acetyltransferase KAT6A, winged helix 1, GST fusion (KAT6A, Homo sapiens, UniProt Q92794, residues 1-85)
Technique: protein binding microarray
Molecule type: double-stranded DNA, one strand shown
Matrix: in vitro
Concentration: not given
Notes: 8-mer, flanks averaged, mean of 2 arrays, mostly near background
Relative to: not given
Reading: higher = stronger binding
Endpoint: E-score
Construct (chain): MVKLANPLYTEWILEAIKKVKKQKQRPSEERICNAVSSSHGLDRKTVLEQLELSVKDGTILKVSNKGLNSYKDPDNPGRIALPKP
CAGTAGAA: -0.339
CAGTCCCG: 0.258
CCAATCCG: 0.0812
GTCTAAAC: -0.0653

Block 2
Target: Sal-like protein 4, full length isoform A (SALL4, Homo sapiens, UniProt Q9UJQ4, residues 1-1053)
Chain of UniProt Q9UJQ4 (whole entry, looked up): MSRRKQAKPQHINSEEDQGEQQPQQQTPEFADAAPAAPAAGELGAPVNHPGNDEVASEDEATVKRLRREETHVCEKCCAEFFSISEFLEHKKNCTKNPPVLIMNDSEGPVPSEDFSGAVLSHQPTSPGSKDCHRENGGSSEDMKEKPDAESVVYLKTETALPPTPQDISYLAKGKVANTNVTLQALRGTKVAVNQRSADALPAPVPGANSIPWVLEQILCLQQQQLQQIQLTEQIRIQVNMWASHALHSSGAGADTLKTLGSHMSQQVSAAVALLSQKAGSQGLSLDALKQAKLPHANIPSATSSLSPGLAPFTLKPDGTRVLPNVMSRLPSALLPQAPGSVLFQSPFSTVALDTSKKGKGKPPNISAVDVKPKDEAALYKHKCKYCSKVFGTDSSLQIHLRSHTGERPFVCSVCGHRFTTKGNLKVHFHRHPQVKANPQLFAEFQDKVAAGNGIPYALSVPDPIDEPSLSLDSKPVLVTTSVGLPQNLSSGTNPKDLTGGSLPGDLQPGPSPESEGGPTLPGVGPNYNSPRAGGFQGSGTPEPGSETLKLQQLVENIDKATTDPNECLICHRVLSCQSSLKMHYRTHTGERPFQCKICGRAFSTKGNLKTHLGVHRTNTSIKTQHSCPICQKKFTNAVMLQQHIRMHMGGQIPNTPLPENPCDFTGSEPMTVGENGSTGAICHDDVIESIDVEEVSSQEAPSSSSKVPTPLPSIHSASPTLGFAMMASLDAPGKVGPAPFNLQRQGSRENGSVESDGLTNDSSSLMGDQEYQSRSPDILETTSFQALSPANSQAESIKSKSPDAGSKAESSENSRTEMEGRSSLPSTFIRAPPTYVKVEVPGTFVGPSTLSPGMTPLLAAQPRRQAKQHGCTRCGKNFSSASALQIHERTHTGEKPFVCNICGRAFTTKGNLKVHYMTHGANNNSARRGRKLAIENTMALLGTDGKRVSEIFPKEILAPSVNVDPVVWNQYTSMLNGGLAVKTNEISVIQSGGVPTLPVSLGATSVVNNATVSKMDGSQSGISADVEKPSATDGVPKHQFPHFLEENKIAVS
Technique: universal PBM
Molecule type: double-stranded DNA, one strand shown
Matrix: in vitro
Concentration: 600 nM
Notes: 8-mer, flanks averaged, mean of replicates
Reading: higher = stronger binding
Endpoint: E-score
GGGGCTGA: -0.275
CCCGTACA: -0.179
TTAGGCAA: 0.0344
AACCTGCG: -0.144

Further values, each from its own experiment
IRF5 K96S/S451D/S453D/S456D/S462D full length, phosphomimetic: Interferon regulatory factor 5, full length, phosphomimetic (IRF5, Homo sapiens, UniProt Q13568-2, residues 1-514, K96S/S451D/S453D/S456D/S462D)
GCCTAGCACGACGGTCTCCTTCTTCTGACGTGCTAGGTCTTGATTCGCTTGACGCTGCTG  log fluorescence (IRF5 K96S/S451D/S453D/S456D/S462D full length, phosphomimetic; protein-binding microarray; double-stranded DNA, one strand shown, in vitro; 250 nM, 60-bp whole probe, with: salmon DNA 0.4 mg/ml; relative to: random background probes, higher = stronger binding): 0.192 z-score
PhoQ, residues 284 288 289 292 302 303 SSCLAV  fold induction (PhoP, residues 12 14 15 18 19 GQAIL (Escherichia coli, UniProt P23836); Sort-seq, item: YFP reporter; E. coli; PhoQ-PhoP variant library, with: 10 µM Mg2+; relative to: high Mg2+ state, higher = stronger signaling): 12.9
GCCTAGCACGACGATTTCGGGTTTCGAGAAGTGCTAGTCTTGATTCGCTTGACGCTGCTG  log fluorescence (IRF5 K96S/S451D/S453D/S456D/S462D full length, phosphomimetic; protein-binding microarray; double-stranded DNA, one strand shown, in vitro; 250 nM, 60-bp whole probe, with: salmon DNA 0.4 mg/ml; relative to: random background probes, higher = stronger binding): 5.3 z-score

Repeated from above (further values, each from its own experiment):
PhoQ, residues 284 288 289 292 302 303 SSCLAV  fold induction (PhoP, residues 12 14 15 18 19 GQAIL (Escherichia coli, UniProt P23836); Sort-seq, item: YFP reporter; E. coli; PhoQ-PhoP variant library, with: 10 µM Mg2+; relative to: high Mg2+ state, higher = stronger signaling): 12.9
